Measurements collected from several papers.
Each numbered part is a random draw from the data of one study; scales do not carry over between parts.

Series 1
Target: Sal-like protein 4, full length isoform A (SALL4, Homo sapiens, UniProt Q9UJQ4, residues 1-1053)
UniProt Q9UJQ4, sequence (whole entry, looked up): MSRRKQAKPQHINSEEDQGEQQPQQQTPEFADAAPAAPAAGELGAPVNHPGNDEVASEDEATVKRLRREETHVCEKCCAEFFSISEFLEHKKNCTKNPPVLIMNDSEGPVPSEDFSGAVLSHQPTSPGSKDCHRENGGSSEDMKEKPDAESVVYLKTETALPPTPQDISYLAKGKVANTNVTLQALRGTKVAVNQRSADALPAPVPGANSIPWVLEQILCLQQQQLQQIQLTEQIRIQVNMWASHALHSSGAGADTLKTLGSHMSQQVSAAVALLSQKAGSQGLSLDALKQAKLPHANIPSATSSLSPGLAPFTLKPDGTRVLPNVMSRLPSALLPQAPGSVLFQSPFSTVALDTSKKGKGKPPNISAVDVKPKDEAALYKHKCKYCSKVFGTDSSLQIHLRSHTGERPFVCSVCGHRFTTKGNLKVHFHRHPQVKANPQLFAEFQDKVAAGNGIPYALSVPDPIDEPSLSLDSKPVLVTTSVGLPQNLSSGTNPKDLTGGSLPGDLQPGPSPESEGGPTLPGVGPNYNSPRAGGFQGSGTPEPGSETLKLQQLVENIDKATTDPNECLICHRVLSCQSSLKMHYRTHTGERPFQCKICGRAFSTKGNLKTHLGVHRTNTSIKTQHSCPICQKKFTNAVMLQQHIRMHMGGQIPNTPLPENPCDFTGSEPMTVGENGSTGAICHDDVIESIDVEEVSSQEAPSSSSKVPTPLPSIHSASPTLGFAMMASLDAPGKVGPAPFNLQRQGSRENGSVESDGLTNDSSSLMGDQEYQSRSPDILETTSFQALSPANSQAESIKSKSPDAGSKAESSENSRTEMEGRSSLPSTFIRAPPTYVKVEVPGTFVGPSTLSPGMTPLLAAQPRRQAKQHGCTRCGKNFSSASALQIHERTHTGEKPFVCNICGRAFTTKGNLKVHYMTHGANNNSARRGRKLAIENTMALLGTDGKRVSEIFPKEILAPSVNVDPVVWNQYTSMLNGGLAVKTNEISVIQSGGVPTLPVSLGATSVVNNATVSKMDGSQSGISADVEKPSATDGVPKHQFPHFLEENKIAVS
Technique: universal PBM
Molecule type: double-stranded DNA, one strand shown
Sample: in vitro
Tested at: 600 nM
Notes: 8-mer, flanks averaged, mean of replicates
Reading: higher = stronger binding
`ATTATAAG` has an E-score of 0.319.
`AGTTAAGA` gave an E-score of 0.0775.
For `GTCCGGTA`, the E-score was -0.0997.
With `CGCTAACG` the E-score was -0.0161.
`GCAACACC` has an E-score of -0.161.
With `ACACTTAG` the E-score was 0.141.
`CCTGCCCC` gave an E-score of -0.323.
With `AAGGCCCG` the E-score was -0.409.
`ACGCTATC` has an E-score of 0.00046.
The E-score of `CCAGCTGC` is reported as -0.386.
`AAGATGCT` has an E-score of 0.0115.
For `GCCCTGAC`, the E-score was -0.216.
For `ATCTACCC`, the E-score was -0.031.
With `TGCCTGAA` the E-score was 0.0284.
With `GCCGGGTA` the E-score was -0.343.
`CGAAACTC` has an E-score of -0.191.
`GAAGCGGC` gave an E-score of -0.341.
The E-score of `TGCTTACA` is reported as 0.0141.
`GACTAGTA` has an E-score of 0.0825.
With `CAGGGGGG` the E-score was -0.458.
`CCAGGCGC` has an E-score of -0.429.
For `GGGCTAGA`, the E-score was -0.165.
The E-score of `CCTAAGCG` is reported as -0.279.

Series 2
Target: Prothrombin, mature alpha-thrombin (F2, Homo sapiens, UniProt P00734)
Technique: aptamer microarray, sandwich
Molecule type: DNA with 2'F-ANA
Sample: in vitro
Tested at: 200 nM
Notes: whole 15-mer aptamer, many near background
Together with: Cy3 exosite-II aptamer, 400 nM
Reading: higher = stronger binding
Sequence: GGTTGGTGTGGTTGG
`2'F-ANA at 1 4 5 6 7 8 9 13 14 15` — result for “mean fluorescence intensity”: 73.6 a.u.
`2'F-ANA at 1 2 4 6 7 8 10 12 13 14`: “mean fluorescence intensity” 42.2 a.u.
Under “mean fluorescence intensity”, `2'F-ANA at 1 3 5 7 8 9` is recorded as 79.1 a.u.
`2'F-ANA at 1 3 4 6 8 10 11` — result for “mean fluorescence intensity”: 61.9 a.u.
`2'F-ANA at 1 2 3 4 5 6 9 10 11 13 14`: “mean fluorescence intensity” 49.9 a.u.
For `2'F-ANA at 6 8 10`, “mean fluorescence intensity” read 160 a.u.
Under “mean fluorescence intensity”, `2'F-ANA at 4 8 10 11 13 14` is recorded as 58 a.u.
For `2'F-ANA at 1 2 3 5 11`, “mean fluorescence intensity” read 50.8 a.u.
For `2'F-ANA at 1 2 4 6 9 11 12 14 15`, “mean fluorescence intensity” read 50.3 a.u.
`2'F-ANA at 1 3 4 6 9 11 12`: “mean fluorescence intensity” 280 a.u.
`2'F-ANA at 4 6 9 10 13 15`: “mean fluorescence intensity” 68.3 a.u.
For `2'F-ANA at 1 2 3 6 9 15`, “mean fluorescence intensity” read 180 a.u.
`2'F-ANA at 1 2 6 8 10 11 13 14` — result for “mean fluorescence intensity”: 47.1 a.u.
`2'F-ANA at 2 7 9 12 13 14`: “mean fluorescence intensity” 162 a.u.
Under “mean fluorescence intensity”, `2'F-ANA at 1 6 7 8 9 12 13` is recorded as 283 a.u.
`2'F-ANA at 1 2 4 5 8 10 12 13 14` — result for “mean fluorescence intensity”: 49 a.u.
`2'F-ANA at 2 3 4 5 6 7 9 13 15` — result for “mean fluorescence intensity”: 59.5 a.u.
`2'F-ANA at 5 6 8 10` — result for “mean fluorescence intensity”: 119 a.u.
For `2'F-ANA at 2 4 6 7 11 12`, “mean fluorescence intensity” read 422 a.u.
`2'F-ANA at 1 4 6 8 10 11 14` — result for “mean fluorescence intensity”: 46.9 a.u.
Under “mean fluorescence intensity”, `2'F-ANA at 1 2 4 5 7 8 10 13` is recorded as 67.1 a.u.
For `2'F-ANA at 1 3 4 5 9 13 14`, “mean fluorescence intensity” read 46.7 a.u.
`2'F-ANA at 1 2 5 7 8 11 12 15`: “mean fluorescence intensity” 93.5 a.u.
Under “mean fluorescence intensity”, `2'F-ANA at 1 2 3 8 11 12 13` is recorded as 353 a.u.
`2'F-ANA at 2 4 7 11 12 13`: “mean fluorescence intensity” 418 a.u.

Series 3
Target: RNA binding protein fox-1 homolog 2, RRM domain, GST-SBP tag (RBFOX2, Homo sapiens, UniProt O43251-10, residues 100-194)
Technique: RNA Bind-n-Seq
Molecule type: RNA
Sample: in vitro
Tested at: 365 nM
Notes: natural RNA segment, single round, ends assumed
Reference: no-protein control
Reading: higher = stronger binding
Residues (chain): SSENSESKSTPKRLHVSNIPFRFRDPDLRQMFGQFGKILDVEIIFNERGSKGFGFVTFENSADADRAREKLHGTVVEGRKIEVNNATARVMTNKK
Under “RBNS enrichment (R)”, `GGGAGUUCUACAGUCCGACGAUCCCUUGGGCUUUUCCUGUCCCUAGGUGCUGAGCCCCAAUCCCCCUUUCCUCCUGAGAACUCAUGUUGCUGCCCUGGUUCUUUCUACAGCUCUGGGAUUUAGGGGGAGCCAAUGGAAUUCUCGGGUGCCAA` is recorded as 0.479.
`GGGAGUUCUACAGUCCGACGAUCCUCUUCAUUUCUUGAGGUUGGUAAAAUUAUCGAACAAAGUCCUAAUAUGCCCAAAACUCAGAUCUUUAGAAGUGAUCUUUCACUUGCUUAAUUGCAAAGUAGUUCAAAGCUGGAAUUCUCGGGUGCCAA` — result for “RBNS enrichment (R)”: 0.22.
`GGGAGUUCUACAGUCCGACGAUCAAUUUCCUGGGCAGUUGAUGCAUCUCUGGGAAAAACACCAGAAAGCUUGCUGAAAUGGAAAACUUGGAAGAAUUGUUCAUCUCUUAGGCUUCCAUUUGGAUGGGCCUGCCUGGAAUUCUCGGGUGCCAA` — result for “RBNS enrichment (R)”: 0.448.
`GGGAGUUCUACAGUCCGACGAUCGACUACAAUUUCUUUUCAUAAAACUUCUUCUCUUCUUGGAAUUAUUAAUUCCUAUCUGCUUCCUAGCUGAUAAAGCUUAGAAAAGGCAGUUAUUCCUUCUUUCCAACCAGUGGAAUUCUCGGGUGCCAA` — result for “RBNS enrichment (R)”: 0.449.
For `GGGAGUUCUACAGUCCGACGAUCAUGUUUGUGCUUUCUCUGGCCCGUGAACACCUCGGCGAUUCUGUUAGGGAUGGGAUGAGUGGGAGGAAGCCCUUUGAGAAGGGGGAGCCGGCCCUGUCAUGCGCAGGUUUUGGAAUUCUCGGGUGCCAA`, “RBNS enrichment (R)” read 0.351.
`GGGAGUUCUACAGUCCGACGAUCUUUCUGUGACUCUCUAAACACUUCAUCGAAACUAGAAGACUGAAUUAUGAGGAAACUAUUUGGAUUAGUGGCCAGAAACGAUGAAAUCUUAUAGAUCUUUUGACAGUUUCUGGAAUUCUCGGGUGCCAA`: “RBNS enrichment (R)” 0.55.
`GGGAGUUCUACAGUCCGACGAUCGAGAAGAAAGUUACUGACUUGUGACCUAUGCUUGGCCCUGUGCCUAGUCACCUGUCACCAGGGAUUCUACUACAGUCUGCGCGCCACAGAUAGUUGCUCACACACCAUUGUGGAAUUCUCGGGUGCCAA`: “RBNS enrichment (R)” 0.158.
For `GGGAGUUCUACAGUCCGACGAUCGUGAAGGCAUCAACUUAUGUAAAAACUCAGAAGGAAGGCUCCUCUGAUAAAAACACAGCUCCUUUAUUAUGCUGCUUUUCUUGUUCACUUUACACACUAAGUAAACACUUUGGAAUUCUCGGGUGCCAA`, “RBNS enrichment (R)” read 0.337.

Series 4
Target: RING finger protein unkempt homolog, zinc fingers 1-6, GST-SBP tag (UNK, Homo sapiens, UniProt Q9C0B0, residues 30-357)
UniProt Q9C0B0, sequence (30-357, looked up): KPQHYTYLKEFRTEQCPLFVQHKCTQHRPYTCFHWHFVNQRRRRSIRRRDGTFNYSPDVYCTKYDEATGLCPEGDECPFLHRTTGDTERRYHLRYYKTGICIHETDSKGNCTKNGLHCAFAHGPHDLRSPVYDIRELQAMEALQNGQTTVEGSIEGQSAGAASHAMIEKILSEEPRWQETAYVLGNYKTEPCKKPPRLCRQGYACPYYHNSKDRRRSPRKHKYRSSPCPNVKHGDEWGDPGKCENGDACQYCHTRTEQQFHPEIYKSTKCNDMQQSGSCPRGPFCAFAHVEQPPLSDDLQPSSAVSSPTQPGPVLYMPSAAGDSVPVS
Technique: RNA Bind-n-Seq
Molecule type: RNA
Sample: in vitro
Tested at: not given
Notes: RNA with constant flanks, ends assumed
Reference: input RNA pool
Reading: higher = stronger binding
With `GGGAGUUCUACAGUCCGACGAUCGGGUUUUCUGCCCCAAAAGACCAACAAGUAGUCACAGCAGUAGAGUACCAAGAGGCUAUUUCCGCCUGCAAAACCCCAAAGAAGACUGUUUCCUCCAGAUUAGAGUGGAAGAAACUGGGUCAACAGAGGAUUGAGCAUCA` the bound/input enrichment was 0.366 ratio.
The bound/input enrichment of `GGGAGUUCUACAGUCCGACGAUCUCAGGAACUCAGACAAAUAUGAAUGUAAAUGAAGUCAUUAGCAAUAGAGCAAUUGAAAUGUCCGGAGGUGAACUUGGCAGCAAGAUACCUGUGCAUCCCAACGAUCAUGUUAAUAAAAGCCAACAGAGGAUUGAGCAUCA` is reported as 0.56 ratio.
With `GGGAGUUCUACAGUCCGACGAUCCGGGAAGCUGUAUGCAUUGUUCUUUCUGAUGACACGUGUUCUGAUGAGAAGAUUCGAAUGAACCGAGUUGUUCGGAAUAACCUCCGAGUUCGCCUAGGAGAUGUCAUCAGCAUCCAGCCACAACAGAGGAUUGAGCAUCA` the bound/input enrichment was 0.104 ratio.
`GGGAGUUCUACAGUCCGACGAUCGAGAGCCGCCUGUCUUGGUUAGAUGGCUCUGGAUUAGGAUUCUCACUGGAAUACCCCACCAUCCGUUUACAUGCAUUAUCCAGGGACCGAAGUGACUGUCUAGGAGAGCAUUUGUAUGUUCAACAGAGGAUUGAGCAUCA` gave a bound/input enrichment of 0.286 ratio.
`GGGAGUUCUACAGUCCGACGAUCUUAGUGGUGACUUCAUUGUGCAAAUCAUCUUCUCUGCCAGCUUCCCAGAACAAUCUGCGGCACCCGGUCCUACCUCCAGCCAAUGAAUGGGAUCAUUCUGGAUGUCACCAGCCCAAUAGGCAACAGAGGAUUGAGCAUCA` has a bound/input enrichment of 0.263 ratio.

Excerpt of the above (series 4):
With `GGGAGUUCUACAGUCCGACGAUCGGGUUUUCUGCCCCAAAAGACCAACAAGUAGUCACAGCAGUAGAGUACCAAGAGGCUAUUUCCGCCUGCAAAACCCCAAAGAAGACUGUUUCCUCCAGAUUAGAGUGGAAGAAACUGGGUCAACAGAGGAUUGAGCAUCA` the bound/input enrichment was 0.366 ratio.
`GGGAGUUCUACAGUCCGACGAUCGAGAGCCGCCUGUCUUGGUUAGAUGGCUCUGGAUUAGGAUUCUCACUGGAAUACCCCACCAUCCGUUUACAUGCAUUAUCCAGGGACCGAAGUGACUGUCUAGGAGAGCAUUUGUAUGUUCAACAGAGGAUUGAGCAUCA` gave a bound/input enrichment of 0.286 ratio.
The bound/input enrichment of `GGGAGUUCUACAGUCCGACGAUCUCAGGAACUCAGACAAAUAUGAAUGUAAAUGAAGUCAUUAGCAAUAGAGCAAUUGAAAUGUCCGGAGGUGAACUUGGCAGCAAGAUACCUGUGCAUCCCAACGAUCAUGUUAAUAAAAGCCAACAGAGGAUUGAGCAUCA` is reported as 0.56 ratio.
`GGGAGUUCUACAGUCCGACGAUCUUAGUGGUGACUUCAUUGUGCAAAUCAUCUUCUCUGCCAGCUUCCCAGAACAAUCUGCGGCACCCGGUCCUACCUCCAGCCAAUGAAUGGGAUCAUUCUGGAUGUCACCAGCCCAAUAGGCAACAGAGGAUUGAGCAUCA` has a bound/input enrichment of 0.263 ratio.
With `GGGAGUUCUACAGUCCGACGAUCCGGGAAGCUGUAUGCAUUGUUCUUUCUGAUGACACGUGUUCUGAUGAGAAGAUUCGAAUGAACCGAGUUGUUCGGAAUAACCUCCGAGUUCGCCUAGGAGAUGUCAUCAGCAUCCAGCCACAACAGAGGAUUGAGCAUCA` the bound/input enrichment was 0.104 ratio.
